Measured values gathered from unrelated publications.
“And” joins repeats or separate records; there may be more than shown. Numbers after ± are the reported error.
SIRT2: NAD-dependent protein deacetylase sirtuin-2 (SIRT2, Homo sapiens, UniProt Q8IXJ6)
Chain of UniProt Q8IXJ6 (whole entry, looked up): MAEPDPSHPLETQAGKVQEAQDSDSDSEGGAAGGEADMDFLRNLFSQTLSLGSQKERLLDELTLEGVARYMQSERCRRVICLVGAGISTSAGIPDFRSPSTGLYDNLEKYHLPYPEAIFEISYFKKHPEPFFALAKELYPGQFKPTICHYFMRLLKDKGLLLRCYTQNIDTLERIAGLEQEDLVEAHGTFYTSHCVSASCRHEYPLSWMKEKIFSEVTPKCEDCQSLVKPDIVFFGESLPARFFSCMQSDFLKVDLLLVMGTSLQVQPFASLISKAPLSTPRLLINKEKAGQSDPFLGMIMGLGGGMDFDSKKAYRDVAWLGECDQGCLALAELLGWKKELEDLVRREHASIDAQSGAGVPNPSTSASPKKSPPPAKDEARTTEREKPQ
AGER: Advanced glycosylation end product-specific receptor (AGER, Homo sapiens, UniProt Q15109)
Chain of UniProt Q15109 (whole entry, looked up): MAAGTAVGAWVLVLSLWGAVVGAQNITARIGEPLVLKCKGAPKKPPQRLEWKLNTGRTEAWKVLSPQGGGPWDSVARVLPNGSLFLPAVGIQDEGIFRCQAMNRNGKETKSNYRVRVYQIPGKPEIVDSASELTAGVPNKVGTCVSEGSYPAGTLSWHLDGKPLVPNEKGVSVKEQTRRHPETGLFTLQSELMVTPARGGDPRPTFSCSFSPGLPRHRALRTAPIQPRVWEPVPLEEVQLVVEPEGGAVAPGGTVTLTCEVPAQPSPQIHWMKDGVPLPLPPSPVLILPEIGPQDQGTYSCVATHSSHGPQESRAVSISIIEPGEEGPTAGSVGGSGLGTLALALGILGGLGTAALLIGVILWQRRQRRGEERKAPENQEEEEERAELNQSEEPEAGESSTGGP
SRD5A1: 3-oxo-5-alpha-steroid 4-dehydrogenase 1 (SRD5A1, Homo sapiens, UniProt P18405)
Chain of UniProt P18405 (whole entry, looked up): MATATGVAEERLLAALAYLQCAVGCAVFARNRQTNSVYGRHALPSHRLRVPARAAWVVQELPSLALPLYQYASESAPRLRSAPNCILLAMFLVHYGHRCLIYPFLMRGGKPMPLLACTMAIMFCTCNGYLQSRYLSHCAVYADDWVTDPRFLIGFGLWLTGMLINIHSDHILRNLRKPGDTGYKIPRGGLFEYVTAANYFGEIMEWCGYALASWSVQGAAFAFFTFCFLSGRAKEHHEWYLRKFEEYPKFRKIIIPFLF
RPS6KA2: Ribosomal protein S6 kinase alpha-2 (RPS6KA2, Homo sapiens, UniProt Q15349)
Chain of UniProt Q15349 (whole entry, looked up): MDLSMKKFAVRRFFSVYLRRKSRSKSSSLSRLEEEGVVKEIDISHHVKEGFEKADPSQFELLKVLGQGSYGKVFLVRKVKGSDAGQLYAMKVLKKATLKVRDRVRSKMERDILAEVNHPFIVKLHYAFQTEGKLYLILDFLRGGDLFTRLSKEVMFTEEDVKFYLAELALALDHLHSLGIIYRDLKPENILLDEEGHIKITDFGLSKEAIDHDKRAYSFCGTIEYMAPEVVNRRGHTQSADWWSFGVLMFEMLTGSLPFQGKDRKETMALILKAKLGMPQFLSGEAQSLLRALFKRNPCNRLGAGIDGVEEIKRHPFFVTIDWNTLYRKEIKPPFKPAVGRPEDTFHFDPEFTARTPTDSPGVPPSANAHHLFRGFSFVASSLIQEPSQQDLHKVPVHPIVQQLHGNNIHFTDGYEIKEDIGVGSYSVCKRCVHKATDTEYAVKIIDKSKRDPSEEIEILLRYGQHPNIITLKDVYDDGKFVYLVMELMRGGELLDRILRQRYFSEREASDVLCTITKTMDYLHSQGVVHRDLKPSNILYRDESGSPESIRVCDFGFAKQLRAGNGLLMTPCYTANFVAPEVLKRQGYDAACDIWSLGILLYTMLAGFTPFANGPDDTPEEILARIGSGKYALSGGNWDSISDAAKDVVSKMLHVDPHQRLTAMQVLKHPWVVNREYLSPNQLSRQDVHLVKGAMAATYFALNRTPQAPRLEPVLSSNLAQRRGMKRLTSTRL
PDK2: [Pyruvate dehydrogenase (acetyl-transferring)] kinase isozyme 2, mitochondrial (PDK2, Homo sapiens, UniProt Q15119)
HTR3A: 5-hydroxytryptamine receptor 3A (HTR3A, Homo sapiens, UniProt P46098)
Chain of UniProt P46098 (whole entry, looked up): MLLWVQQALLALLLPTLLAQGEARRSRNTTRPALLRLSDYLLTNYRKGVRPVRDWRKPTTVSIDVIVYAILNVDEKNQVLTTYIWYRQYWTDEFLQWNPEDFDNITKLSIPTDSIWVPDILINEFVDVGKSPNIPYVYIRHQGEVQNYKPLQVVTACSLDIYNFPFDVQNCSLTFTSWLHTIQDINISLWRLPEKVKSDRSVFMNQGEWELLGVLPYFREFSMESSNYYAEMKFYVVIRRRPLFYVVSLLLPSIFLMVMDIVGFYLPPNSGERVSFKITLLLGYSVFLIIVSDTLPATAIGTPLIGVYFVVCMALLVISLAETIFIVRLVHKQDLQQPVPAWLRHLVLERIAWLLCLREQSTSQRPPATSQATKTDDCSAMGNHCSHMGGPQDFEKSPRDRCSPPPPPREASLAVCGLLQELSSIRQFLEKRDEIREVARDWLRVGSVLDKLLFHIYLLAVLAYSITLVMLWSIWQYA
JAK2: Tyrosine-protein kinase JAK2 (JAK2, Homo sapiens, UniProt O60674)
Chain of UniProt O60674 (whole entry, looked up): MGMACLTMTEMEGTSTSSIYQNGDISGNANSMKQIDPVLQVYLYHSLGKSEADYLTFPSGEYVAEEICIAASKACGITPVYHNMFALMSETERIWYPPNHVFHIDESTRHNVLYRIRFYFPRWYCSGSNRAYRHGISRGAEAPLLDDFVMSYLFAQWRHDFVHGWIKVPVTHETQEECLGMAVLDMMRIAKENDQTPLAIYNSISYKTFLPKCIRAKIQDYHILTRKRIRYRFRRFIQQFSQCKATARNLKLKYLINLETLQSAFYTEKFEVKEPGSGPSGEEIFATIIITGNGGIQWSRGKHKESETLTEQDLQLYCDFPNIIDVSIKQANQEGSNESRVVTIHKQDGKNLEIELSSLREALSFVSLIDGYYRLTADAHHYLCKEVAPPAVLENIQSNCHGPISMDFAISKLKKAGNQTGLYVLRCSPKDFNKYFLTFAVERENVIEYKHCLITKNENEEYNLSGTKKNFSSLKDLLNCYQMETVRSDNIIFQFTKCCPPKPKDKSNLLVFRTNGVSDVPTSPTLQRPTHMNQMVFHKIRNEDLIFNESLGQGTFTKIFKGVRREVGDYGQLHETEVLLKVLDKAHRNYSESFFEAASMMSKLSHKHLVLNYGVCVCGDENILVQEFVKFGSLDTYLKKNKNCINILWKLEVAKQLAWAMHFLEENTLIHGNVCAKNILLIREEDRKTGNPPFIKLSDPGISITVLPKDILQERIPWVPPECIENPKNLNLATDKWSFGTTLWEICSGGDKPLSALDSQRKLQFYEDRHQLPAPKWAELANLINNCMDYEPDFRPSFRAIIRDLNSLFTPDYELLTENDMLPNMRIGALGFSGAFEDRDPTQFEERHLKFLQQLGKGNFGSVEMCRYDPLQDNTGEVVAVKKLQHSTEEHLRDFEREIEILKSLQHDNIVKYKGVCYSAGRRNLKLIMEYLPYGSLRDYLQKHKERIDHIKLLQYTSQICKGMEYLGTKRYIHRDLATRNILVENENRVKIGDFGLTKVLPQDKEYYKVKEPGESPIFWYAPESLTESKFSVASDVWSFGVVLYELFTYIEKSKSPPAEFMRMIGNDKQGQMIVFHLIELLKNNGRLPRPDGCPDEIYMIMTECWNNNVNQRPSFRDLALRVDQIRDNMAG
Cacna1b: Voltage-dependent N-type calcium channel subunit alpha-1B (Cacna1b, Rattus norvegicus, UniProt Q02294)
CTSB: Cathepsin B (CTSB, Homo sapiens, UniProt P07858)
GBA2: Beta-glucosidase (GBA2, Homo sapiens, UniProt Q9HCG7)
Chain of UniProt Q9UM07 (whole entry, looked up): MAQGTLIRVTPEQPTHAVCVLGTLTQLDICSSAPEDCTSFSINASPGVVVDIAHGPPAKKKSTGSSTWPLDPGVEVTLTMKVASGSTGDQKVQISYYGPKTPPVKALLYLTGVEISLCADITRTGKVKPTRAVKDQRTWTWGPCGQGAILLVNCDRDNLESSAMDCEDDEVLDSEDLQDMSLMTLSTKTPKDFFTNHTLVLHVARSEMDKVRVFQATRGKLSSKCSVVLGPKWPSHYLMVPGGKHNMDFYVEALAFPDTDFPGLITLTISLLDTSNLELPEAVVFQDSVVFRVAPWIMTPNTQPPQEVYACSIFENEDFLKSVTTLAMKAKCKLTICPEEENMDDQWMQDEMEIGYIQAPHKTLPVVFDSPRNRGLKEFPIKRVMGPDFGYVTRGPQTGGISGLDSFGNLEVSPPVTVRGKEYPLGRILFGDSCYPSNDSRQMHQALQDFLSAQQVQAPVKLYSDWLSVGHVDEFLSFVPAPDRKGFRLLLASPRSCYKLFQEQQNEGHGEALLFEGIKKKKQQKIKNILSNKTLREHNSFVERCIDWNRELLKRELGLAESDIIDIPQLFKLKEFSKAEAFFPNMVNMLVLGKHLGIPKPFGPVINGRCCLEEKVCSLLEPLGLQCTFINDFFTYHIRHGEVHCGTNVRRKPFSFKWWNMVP
Chain of UniProt Q9HCG7 (whole entry, looked up): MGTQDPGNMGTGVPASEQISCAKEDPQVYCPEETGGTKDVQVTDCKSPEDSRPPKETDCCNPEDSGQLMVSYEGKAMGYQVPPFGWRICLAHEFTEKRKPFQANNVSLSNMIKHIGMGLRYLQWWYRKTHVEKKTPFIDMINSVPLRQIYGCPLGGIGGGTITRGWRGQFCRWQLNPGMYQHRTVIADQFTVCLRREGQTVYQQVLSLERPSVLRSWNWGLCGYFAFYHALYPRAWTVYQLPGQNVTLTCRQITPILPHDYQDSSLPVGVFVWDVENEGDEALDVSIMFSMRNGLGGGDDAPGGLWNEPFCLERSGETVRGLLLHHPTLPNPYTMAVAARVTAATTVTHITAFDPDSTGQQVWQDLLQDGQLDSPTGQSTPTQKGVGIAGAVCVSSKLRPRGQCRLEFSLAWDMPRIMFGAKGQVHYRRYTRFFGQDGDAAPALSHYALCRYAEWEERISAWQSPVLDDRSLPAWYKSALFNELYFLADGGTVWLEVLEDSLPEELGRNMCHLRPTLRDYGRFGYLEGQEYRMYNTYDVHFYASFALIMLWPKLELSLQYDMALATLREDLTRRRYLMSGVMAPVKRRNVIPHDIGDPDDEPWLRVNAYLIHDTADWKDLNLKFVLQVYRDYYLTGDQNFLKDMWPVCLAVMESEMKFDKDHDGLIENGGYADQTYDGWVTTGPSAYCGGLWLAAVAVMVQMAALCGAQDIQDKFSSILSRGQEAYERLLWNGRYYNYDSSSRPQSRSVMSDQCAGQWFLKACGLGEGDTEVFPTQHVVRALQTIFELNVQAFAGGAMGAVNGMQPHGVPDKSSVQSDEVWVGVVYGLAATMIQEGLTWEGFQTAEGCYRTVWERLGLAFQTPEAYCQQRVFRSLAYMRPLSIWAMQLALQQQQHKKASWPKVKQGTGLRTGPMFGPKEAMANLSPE

| Structure (SMILES) | target or system | assay | test system | setting | scale | measurement | result |
| --- | --- | --- | --- | --- | --- | --- | --- |
| CCCCCCCCCCCCNC(=S)NCCCC[C@H](NC(=O)OCc1ccccc1)C(=O)N1CCC[C@H]1C(=O)N[C@@H](CCCNC(=N)N)C(N)=O | SIRT2 | enzyme activity, inhibitor | – | 1 µM | – | inhibition | 53% |
| C=CC(=O)N1Cc2nc(-c3cc(-c4cc(Cl)cnc4Cl)c(F)cc3F)n(-c3ccncn3)c2C1 | 5'-AMP-activated protein kinase catalytic subunit alpha-2, with beta1 gamma1 (PRKAA2, Homo sapiens, UniProt P54646) | kinome panel | – | 1 µM | – | inhibition | -0.7% |
| O=C(Nc1ccc(C(=O)c2c[nH]cc2-c2ccc(Cl)cc2)cc1)Nc1ccc(Cl)c(Cl)c1 | AGER | – | – | 100 µM | – | inhibition | 5% |
| CC(=O)Oc1ccc(/C=C/C(=O)Oc2cc(C(F)(F)F)ccc2C(F)(F)F)cc1OC(C)=O | SRD5A1 | enzyme activity in cells, inhibitor | HaCaT | 50 µM | – | inhibition | 24.6% |
| Cn1sc(Nc2c(Cl)ccc3ncccc23)c(C#N)c1=O | CD38 (Homo sapiens, UniProt P28907) | enzyme activity, inhibitor | – | 10 µM | – | inhibition | 1% |
| COC1CN([C@H]2CC[C@H]([C@@]3(C)Oc4c(Cl)cc(C(=O)NCc5c(SC)cc(C)[nH]c5=O)c(C)c4O3)CC2)C1 | – | RNA-seq, measured: NATD1 | human, whole blood | dose not given, 24 h | baseline: pretreatment baseline | log2 fold change | 1.23 |
| CCCCC(=O)N1N=C(c2ccc(NC(=O)Nc3ccc(Cl)cc3)cc2)CC1c1ccc(Cl)cc1 (stereo not shown) | AGER | – | – | 100 µM | – | inhibition | 41% |
| C=CC(=O)Nc1cccc(-c2cnc3[nH]cc(C(=O)NC(C)(C)C)c3n2)c1 | RPS6KA2 | enzyme activity, inhibitor | – | 0.1 µM | – | inhibition | 39% |
| CCn1cc(C(=O)O)c(=O)c2c(N)c(F)c(NC3CCCCC3)cc21 | PDK2 | kinase activity | – | 0.1 µM, with: ATP at Km | – | inhibition | -1.1% |
| Cl.Cl.N[C@@H](C(=O)N1CCCC1)C1CCN(c2nccc3c(-c4ncc(Cl)cc4Cl)cccc23)CC1 | PADI4 (Homo sapiens, UniProt Q9UM07) | enzyme activity, inhibitor | – | 306 pM, with: Ca2+ 0.4 mM | – | inhibition | 3.66% and -3.72% and 3.81% |
| O=C(Nc1ccc(C(F)F)cc1)[C@H](CC1CCCCC1)Nc1nn2c(=O)ccnc2s1 | PTPN7 (Homo sapiens, UniProt P35236) | enzyme activity, inhibitor | – | 10 µM | – | inhibition | -1% |
| O=C(Nc1ccc(Cl)cc1)Nc1ccc(C2=NNC(c3cccc(NC(=O)Nc4ccc(Cl)cc4)c3)C2)cc1 (stereo not shown) | AGER | – | – | 100 µM | – | inhibition | 89% |
| CN(Cc1ccc(/C=C/C(=O)NO)cc1)CC12CC3CC(CC(C3)C1)C2 | human D1 receptor | antagonist radioligand binding | – | 0.05 µM | – | inhibition | -4% |
| Cc1ccnc(OC[C@H]2CN(CCN3CCc4ccccc43)CCO2)c1 | HTR3A | radioligand binding | – | concentration not given, with: [3H]GR65630 | – | inhibition | 20.9% |
| Cc1cnc2nc1Nc1cccc(c1)COC/C=C/COCc1cc(ccc1OCCN1CCOCC1)N2 | JAK2 | inhibitor, Z'-LYTE kinase | – | 3.906 nM | – | inhibition | 76.2% and 67.3% and 74.8% |
| O=C(NC1CCC1)[C@H](Cc1c[nH]c2ccccc12)NC(=O)[C@H](CCCCNC(=S)NCCc1noc(=O)[nH]1)NS(=O)(=O)c1cccc(F)c1 | SIRT2 | enzyme activity, inhibitor | – | 10 µM | – | inhibition | 7% |
| Cn1ccc2cc(-n3c(=O)[nH]c4sc5c(c4c3=O)CCCC5)ccc21 | Cacna1b | cell-free assay | – | 10 µM | – | inhibition | -8% |
| CC(C)Cn1c(SCC(=O)N2CCc3ccccc3C2)nc2cc(Cl)ccc2c1=O | HTR3A | ligand displacement, radioligand | – | 10 µM | – | inhibition | 2% |
| C[C@@H](O)[C@H](NC(=O)c1ccc(OCc2ccccc2)cc1)C(=O)N[C@@H](CCc1ccccc1)C(=O)NCc1ccccc1Cl | CTSB | enzyme activity, inhibitor | – | 100 µM | – | inhibition | -3% |
| CCCCCNC(=O)N1N=C(c2ccc(Cl)cc2)CC1c1ccc(NC(=O)Nc2ccc(F)cc2)cc1 (stereo not shown) | AGER | – | – | 100 µM | – | inhibition | 34% |
| Cc1cnc2nc1Nc1cccc(c1)COCCCCOCc1cc(ccc1OCCN1CCCC1)N2 | JAK2 | inhibitor, Z'-LYTE kinase | – | 1111.11 nM | – | inhibition | 69.5% and 80.3% and 70% |
| C[Si]1(C[C@H](CN)CC(=O)O)CCCC1 | SSTR2 (Homo sapiens, UniProt P30874) | ligand displacement, radioligand | – | 70 µM | – | inhibition | 5% |
| CC(=O)C12NC(C)(C)CC1(C)C(=O)C1=C2c2c(c3c4n2C(C)(C)CC2=C4C4(CC(C)(C)NC(C)(C4)C2=O)CC3(C)C)C(=O)C(C)(C)N1 (single isomer, unassigned; (-)) | TRPC5 (Homo sapiens, UniProt Q9UL62) | ion current, antagonist, whole-cell patch clamp | HEK293T | 10 µM | – | inhibition | 10.91 ± 0.04% |
| CC(C)[C@H]1NC(=O)[C@@H](C)NC(=O)[C@@H](C(C)C)NC(=O)[C@@H](Cc2ccccc2)NC(=O)[C@@H](C(C)C)NC(=O)[C@@H]([C@H](C)O)NC(=O)[C@@H](Cc2ccc(O)cc2)NC(=O)[C@@H](CCCNC(=N)N)NC(=O)[C@@H]2CCCC[C@H]2NC(=O)[C@@H](CO)NC(=O)[C@H](Cc2ccc(O)cc2)NC(=O)CSC[C@@H](C(=O)NCCOCCOCCOCCOCCOCCOCCC(N)=O)NC(=O)[C@@H](CO)NC(=O)[C@@H](C(C)C)NC(=O)[C@@H](Cc2ccc(O)cc2)NC1=O | Matrilysin (MMP7, Homo sapiens, UniProt P09237) | enzyme activity, inhibitor | – | concentration not given, high-affinity phase of biphasic curve | – | inhibition | ~65% |
| Cc1cccc(O[C@H]2CCC[C@@H](C(C)CNCc3ccncc3)C2)c1 (relative stereo) | RPS6KA2 | kinome profiling | – | 10 µM | – | inhibition | -5% |

| Structure (SMILES) | target or system | assay | test system | setting | scale | measurement | result |
| --- | --- | --- | --- | --- | --- | --- | --- |
| Cc1cnc2nc1Nc1cccc(c1)COCc1cc(ccc1OCCN1CCOCC1)N2 | JAK2 | inhibitor, Z'-LYTE kinase | – | 12.35 nM | – | inhibition | 27.5% and 26.6% and 33.1% |
| OC[C@H]1N[C@H](CCCCCOCC23CC4CC(CC(C4)C2)C3)[C@H](O)[C@@H](O)[C@@H]1O | GBA2 | inhibitor, 4MU-β-D-glucopyranoside | HEK293T homogenates overexpressing GBA2 | – | baseline: GCS IC50 over GBA2 IC50 | selectivity ratio | 167 |
| Cc1ccc(N(O)/N=N/c2ccc(S(=O)(=O)Nc3nccs3)cc2)cc1 | α-glucosidase, rat intestine | enzyme activity | – | 300 µg/mL, with: 4-nitrophenyl α-D-glucopyranoside | – | inhibition | 47.5 ± 0.01% |
| Cc1nc2c(F)cc(-c3nc(Nc4ccc(CNC(=O)CCCCCCC(=O)NO)cc4)ncc3F)cc2n1C(C)C | Rps6ka1 (Rattus norvegicus, UniProt Q63531) | enzyme activity, inhibitor | – | 1 µM | – | inhibition | 64% |
| NC(=O)[C@@H](O)C[C@H]1CCc2sc3ncnc(O[C@H]4CC[C@H](N5CCOCC5)CC4)c3c21 | TSSK6 (Homo sapiens, UniProt Q9BXA6) | enzyme activity, inhibitor | – | 10 µM | – | inhibition | -7% |
| COCC(=O)N1CCc2cc(-c3csc(NC(=O)c4cc(OC)cc(OC)c4)n3)ccc21 | Cacna1b | cell-free assay | – | 10 µM | – | inhibition | -17% |
| CCCCC(=O)N1N=C(c2ccc(Cl)cc2)CC1c1ccc(NC(=O)Nc2ccc(Cl)cc2)cc1 (stereo not shown) | AGER | – | – | 100 µM | – | inhibition | 30% |
| Cc1cnc2nc1Nc1cc(F)cc(c1)COC/C=C/COCc1cc(ccc1OCCN1CCCC1)N2 | JAK2 | inhibitor, Z'-LYTE kinase | – | 0.4572 nM | – | inhibition | 7.42% and 5.59% and 12.4% |
| Cc1[nH]nc2c1N=C(c1ccccc1Cl)c1cnc(N3CCOCC3)cc1N2 | PDK2 | enzyme activity, inhibitor | – | 0.5 µM | – | inhibition | 18.4% |
| O=C1c2sc(-c3ccc(N4CCC(CO)CC4)nc3F)nc2CCN1c1cccnc1 | MT3 (ML-2) receptor | radioligand binding | – | 1 µM, with: agonist radioligand | – | inhibition | -10% |
| C[Si](C)(C)C[C@H](CN)CC(=O)O | Htr1b (Rattus norvegicus, UniProt P28564) | ligand displacement, radioligand | – | 250 µM | – | inhibition | -1% |
| C/C=C/C(=O)Nc1ccc2nc(NCCCCCN(C)C)nc(NCCCCCCN(C)C)c2c1 | DNA (cytosine-5)-methyltransferase 3B, with DNMT3L (DNMT3B, Homo sapiens, UniProt Q9UBC3) | enzyme activity | – | 10 µM | – | inhibition | -26% |
| CCCCCCN(O)C(=O)CCCCC[C@@H]1NC(=O)[C@H]([C@@H](C)CC)NC(=O)[C@H](Cc2ccccc2C(F)(F)F)NC(=O)CCSCc2cccc(n2)CSCCCNC1=O | HDAC2 (Homo sapiens, UniProt Q92769) | enzyme activity, inhibitor, fluorogenic | – | 30 µM | – | inhibition | 45% |
| CN1CCN(Cc2ccc(-c3ccc(CO[C@H]4CCC[C@@H]4NC(=O)c4cc(-c5cnn(C)c5)cnc4N)cc3)cc2)CC1 | 5'-AMP-activated protein kinase catalytic subunit alpha-2, with beta2 gamma1 (PRKAA2, Homo sapiens, UniProt P54646) | SelectScreen kinase profiling | – | 0.1 µM | – | inhibition | -3% |
| N=C(N)NCCCC(NC(=O)C(CC(=O)NO)Cc1ccc2ccccc2c1)C(=O)NC(Cc1c[nH]c2ccccc12)C(=O)NC(CCC(=O)O)C(N)=O (stereo not shown) | MMP14 (Homo sapiens, UniProt P50281) | – | – | 1 µM | – | inhibition | 16% |
| CCCCCCCCCCCCNC(=S)NCCCC[C@H](NC(=O)OCc1ccccc1)C(=O)N[C@@H](Cc1c[nH]c2ccccc12)C(=O)NC(C)C | SIRT2 | enzyme activity, inhibitor | – | 100 µM | – | inhibition | 22% |
| CC(C)(C)CNC(=O)C[C@H](NC(=O)CCc1ccccc1)C(=O)N[C@@H](Cc1cccnc1)C(=O)NCc1ccccc1Cl | CTSB | enzyme activity, inhibitor | – | 100 µM | – | inhibition | -6% |
| CO[C@@H](C)c1c(NC(=O)Nc2cnc(-n3nccn3)c(C(F)(F)F)c2)cnc2sc(C)nc12 | CCR1 (Homo sapiens, UniProt P32246) | ligand displacement, radioligand | – | 10 µM | – | inhibition | -3.6% |
| COc1cc(/C=C/C(=O)Oc2cc(C(F)(F)F)cc(C(F)(F)F)c2)ccc1O | SRD5A1 | enzyme activity in cells, inhibitor | HaCaT | 5 µM | – | inhibition | 44.2% |
| O=C1c2sc(-c3ccc(N4CCC(F)C4)nc3F)nc2CCN1c1cccnc1 (stereo not shown) | ADRA2A (Homo sapiens, UniProt P08913) | ligand displacement, radioligand | – | 1 µM | – | inhibition | 3% |
| CC(=O)Oc1ccc(/C=C/C(=O)Oc2cc(C(F)(F)F)cc(C(F)(F)F)c2)cc1OC(C)=O | SRD5A1 | enzyme activity in cells, inhibitor | HaCaT | 25 µM | – | inhibition | 38.6% |
| OC[C@@H]1[C@@H](O)[C@H](O)[C@@H](O)CN1CCCCCOCc1ccc(-c2ccccc2)cn1 | GBA2 | inhibitor, 4MU-β-D-glucopyranoside | HEK293T homogenates overexpressing GBA2 | – | baseline: GCS IC50 over GBA2 IC50 | selectivity ratio | 67 |
| COc1ccc(NC(=O)/C(=C/c2ccc(N(C)C)cc2Cl)Sc2ccc(OC)cc2)cc1 | AGER | AGE2-BSA binding, inhibitor, competitive ELISA | – | 100 µM, 60 min, with: AGE2-BSA | – | inhibition | 0% |
| CN(C)C/C=C/C(=O)Nc1ccc2nc(NCCCCCN(C)C)nc(NCCCCCCN(C)C)c2c1 | PRMT5 (Homo sapiens, UniProt O14744) | enzyme activity, inhibitor, radiometric | – | 10 µM | – | inhibition | 8% |

For quick reference, copied from above:
| Structure (SMILES) | target or system | assay | test system | setting | scale | measurement | result |
| --- | --- | --- | --- | --- | --- | --- | --- |
| O=C(Nc1ccc(C(F)F)cc1)[C@H](CC1CCCCC1)Nc1nn2c(=O)ccnc2s1 | PTPN7 (Homo sapiens, UniProt P35236) | enzyme activity, inhibitor | – | 10 µM | – | inhibition | -1% |
| O=C(Nc1ccc(Cl)cc1)Nc1ccc(C2=NNC(c3cccc(NC(=O)Nc4ccc(Cl)cc4)c3)C2)cc1 (stereo not shown) | AGER | – | – | 100 µM | – | inhibition | 89% |
| CN(Cc1ccc(/C=C/C(=O)NO)cc1)CC12CC3CC(CC(C3)C1)C2 | human D1 receptor | antagonist radioligand binding | – | 0.05 µM | – | inhibition | -4% |
| Cc1ccnc(OC[C@H]2CN(CCN3CCc4ccccc43)CCO2)c1 | HTR3A | radioligand binding | – | concentration not given, with: [3H]GR65630 | – | inhibition | 20.9% |
